Published values pooled from the literature.
Every numbered part comes from another study and shows a few of its results, in no order.
UniProt Q8TDR2, sequence (whole entry, looked up): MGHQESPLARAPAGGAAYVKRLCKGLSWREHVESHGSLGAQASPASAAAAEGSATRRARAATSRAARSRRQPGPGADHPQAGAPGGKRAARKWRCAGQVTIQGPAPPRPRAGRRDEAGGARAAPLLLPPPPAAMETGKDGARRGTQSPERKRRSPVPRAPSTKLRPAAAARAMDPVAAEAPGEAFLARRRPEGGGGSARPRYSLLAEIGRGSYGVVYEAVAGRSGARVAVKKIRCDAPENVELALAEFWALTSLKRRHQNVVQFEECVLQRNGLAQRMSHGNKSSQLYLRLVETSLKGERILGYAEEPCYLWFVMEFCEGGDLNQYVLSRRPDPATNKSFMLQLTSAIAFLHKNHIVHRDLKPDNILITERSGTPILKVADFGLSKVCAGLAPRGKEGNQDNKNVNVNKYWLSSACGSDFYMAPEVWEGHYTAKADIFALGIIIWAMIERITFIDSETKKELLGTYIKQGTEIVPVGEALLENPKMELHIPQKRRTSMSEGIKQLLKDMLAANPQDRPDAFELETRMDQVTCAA
UniProt Q13523, sequence (whole entry, looked up): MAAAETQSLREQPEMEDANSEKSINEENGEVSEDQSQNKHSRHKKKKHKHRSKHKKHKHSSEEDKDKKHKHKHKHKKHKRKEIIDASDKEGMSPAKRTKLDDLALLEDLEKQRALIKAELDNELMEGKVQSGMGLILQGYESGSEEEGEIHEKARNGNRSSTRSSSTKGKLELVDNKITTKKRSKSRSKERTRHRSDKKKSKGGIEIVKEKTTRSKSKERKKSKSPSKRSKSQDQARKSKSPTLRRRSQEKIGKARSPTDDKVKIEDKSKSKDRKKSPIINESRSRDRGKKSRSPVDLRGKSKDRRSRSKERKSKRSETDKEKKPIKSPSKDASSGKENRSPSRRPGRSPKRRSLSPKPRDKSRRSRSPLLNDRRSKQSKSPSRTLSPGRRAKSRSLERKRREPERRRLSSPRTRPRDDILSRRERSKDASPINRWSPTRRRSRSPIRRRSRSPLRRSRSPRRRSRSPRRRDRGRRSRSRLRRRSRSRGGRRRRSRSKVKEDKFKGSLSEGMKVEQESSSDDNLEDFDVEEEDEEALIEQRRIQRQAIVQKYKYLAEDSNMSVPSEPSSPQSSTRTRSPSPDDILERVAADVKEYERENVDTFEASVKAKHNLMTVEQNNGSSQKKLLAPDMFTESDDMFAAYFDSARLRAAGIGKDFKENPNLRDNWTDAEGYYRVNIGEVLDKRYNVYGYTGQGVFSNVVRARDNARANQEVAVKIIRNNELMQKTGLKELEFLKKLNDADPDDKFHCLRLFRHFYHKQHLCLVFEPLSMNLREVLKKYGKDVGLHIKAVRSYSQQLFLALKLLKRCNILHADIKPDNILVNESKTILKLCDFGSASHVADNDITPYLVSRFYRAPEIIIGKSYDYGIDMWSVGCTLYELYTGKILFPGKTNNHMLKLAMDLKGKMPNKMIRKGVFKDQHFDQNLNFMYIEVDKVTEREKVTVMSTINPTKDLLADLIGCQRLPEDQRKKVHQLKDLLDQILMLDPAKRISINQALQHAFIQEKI
UniProt Q99755, sequence (whole entry, looked up): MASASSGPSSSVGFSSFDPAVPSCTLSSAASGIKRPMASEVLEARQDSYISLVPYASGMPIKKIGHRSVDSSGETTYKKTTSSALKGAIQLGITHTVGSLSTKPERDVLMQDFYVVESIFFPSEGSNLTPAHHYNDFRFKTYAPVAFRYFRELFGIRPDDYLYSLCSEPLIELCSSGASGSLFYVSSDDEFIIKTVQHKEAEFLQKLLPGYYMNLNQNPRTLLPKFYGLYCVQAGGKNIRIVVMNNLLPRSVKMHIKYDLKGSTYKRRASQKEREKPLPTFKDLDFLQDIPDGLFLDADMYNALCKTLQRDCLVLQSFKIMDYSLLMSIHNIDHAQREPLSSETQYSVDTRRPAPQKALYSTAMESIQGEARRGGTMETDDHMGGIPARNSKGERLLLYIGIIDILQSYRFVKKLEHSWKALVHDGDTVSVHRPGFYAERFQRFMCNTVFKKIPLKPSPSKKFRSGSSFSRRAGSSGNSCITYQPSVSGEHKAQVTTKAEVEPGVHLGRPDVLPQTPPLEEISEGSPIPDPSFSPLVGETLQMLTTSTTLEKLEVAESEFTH
UniProt P42336, sequence (whole entry, unmodified, looked up): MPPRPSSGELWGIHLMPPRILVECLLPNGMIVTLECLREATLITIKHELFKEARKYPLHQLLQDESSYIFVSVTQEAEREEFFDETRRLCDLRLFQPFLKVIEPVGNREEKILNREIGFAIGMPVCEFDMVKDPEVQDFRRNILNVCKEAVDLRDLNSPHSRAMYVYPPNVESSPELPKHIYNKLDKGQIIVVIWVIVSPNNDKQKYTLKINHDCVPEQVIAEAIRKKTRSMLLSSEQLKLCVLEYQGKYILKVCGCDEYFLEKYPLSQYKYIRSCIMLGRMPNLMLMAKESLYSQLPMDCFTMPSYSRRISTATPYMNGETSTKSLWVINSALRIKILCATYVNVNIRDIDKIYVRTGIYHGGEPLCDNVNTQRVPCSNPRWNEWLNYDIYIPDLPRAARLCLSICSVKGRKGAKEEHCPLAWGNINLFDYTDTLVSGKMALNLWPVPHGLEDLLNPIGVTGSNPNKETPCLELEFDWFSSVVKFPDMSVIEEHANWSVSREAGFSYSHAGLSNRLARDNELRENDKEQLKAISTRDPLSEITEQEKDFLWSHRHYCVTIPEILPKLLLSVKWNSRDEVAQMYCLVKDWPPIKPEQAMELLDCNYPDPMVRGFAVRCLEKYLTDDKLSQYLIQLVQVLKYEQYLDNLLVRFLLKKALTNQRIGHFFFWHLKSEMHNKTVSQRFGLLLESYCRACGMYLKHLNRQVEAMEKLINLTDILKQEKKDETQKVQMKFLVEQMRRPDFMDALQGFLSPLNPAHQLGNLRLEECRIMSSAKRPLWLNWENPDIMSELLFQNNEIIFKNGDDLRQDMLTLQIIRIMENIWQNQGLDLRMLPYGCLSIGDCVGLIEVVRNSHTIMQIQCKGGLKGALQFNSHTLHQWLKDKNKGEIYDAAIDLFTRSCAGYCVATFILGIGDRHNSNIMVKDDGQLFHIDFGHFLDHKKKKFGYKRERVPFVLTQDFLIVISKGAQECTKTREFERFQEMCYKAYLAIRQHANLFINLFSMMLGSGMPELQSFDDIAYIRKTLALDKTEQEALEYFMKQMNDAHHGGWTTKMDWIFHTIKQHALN
UniProt P15056, sequence (whole entry, looked up): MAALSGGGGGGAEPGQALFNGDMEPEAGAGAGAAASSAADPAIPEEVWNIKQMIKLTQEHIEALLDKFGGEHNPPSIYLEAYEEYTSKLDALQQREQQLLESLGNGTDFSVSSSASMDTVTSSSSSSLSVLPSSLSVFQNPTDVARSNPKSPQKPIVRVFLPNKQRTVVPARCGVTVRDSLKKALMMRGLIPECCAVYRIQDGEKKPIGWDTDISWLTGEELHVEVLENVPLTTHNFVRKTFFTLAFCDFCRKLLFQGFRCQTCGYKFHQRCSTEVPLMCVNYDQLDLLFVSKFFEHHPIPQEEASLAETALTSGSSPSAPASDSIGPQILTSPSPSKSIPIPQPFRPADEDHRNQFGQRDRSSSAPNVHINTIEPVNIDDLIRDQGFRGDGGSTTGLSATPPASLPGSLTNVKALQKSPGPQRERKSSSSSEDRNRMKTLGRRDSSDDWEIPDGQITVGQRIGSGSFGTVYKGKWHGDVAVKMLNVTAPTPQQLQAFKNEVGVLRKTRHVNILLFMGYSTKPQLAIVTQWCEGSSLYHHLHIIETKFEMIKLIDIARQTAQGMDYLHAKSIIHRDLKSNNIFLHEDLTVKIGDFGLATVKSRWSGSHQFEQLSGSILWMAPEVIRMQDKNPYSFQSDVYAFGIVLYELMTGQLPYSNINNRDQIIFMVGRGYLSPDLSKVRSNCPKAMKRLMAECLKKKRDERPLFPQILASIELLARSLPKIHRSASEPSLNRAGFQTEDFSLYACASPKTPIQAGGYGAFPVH
UniProt Q00535, sequence (whole entry, looked up): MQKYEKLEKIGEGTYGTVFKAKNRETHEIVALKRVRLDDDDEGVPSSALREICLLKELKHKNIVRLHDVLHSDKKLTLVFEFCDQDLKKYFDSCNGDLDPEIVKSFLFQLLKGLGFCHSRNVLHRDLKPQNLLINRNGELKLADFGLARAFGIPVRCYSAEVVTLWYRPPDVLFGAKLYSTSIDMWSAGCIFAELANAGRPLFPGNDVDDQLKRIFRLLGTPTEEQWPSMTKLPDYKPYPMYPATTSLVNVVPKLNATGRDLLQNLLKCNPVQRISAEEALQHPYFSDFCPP

Block 1 — observed: enzyme activity; mode: inhibitor; concentration: 0.5 µM; relative to: control
Target: NT-3 growth factor receptor (NTRK3, Homo sapiens, UniProt Q16288)
UniProt Q16288, sequence (whole entry, looked up): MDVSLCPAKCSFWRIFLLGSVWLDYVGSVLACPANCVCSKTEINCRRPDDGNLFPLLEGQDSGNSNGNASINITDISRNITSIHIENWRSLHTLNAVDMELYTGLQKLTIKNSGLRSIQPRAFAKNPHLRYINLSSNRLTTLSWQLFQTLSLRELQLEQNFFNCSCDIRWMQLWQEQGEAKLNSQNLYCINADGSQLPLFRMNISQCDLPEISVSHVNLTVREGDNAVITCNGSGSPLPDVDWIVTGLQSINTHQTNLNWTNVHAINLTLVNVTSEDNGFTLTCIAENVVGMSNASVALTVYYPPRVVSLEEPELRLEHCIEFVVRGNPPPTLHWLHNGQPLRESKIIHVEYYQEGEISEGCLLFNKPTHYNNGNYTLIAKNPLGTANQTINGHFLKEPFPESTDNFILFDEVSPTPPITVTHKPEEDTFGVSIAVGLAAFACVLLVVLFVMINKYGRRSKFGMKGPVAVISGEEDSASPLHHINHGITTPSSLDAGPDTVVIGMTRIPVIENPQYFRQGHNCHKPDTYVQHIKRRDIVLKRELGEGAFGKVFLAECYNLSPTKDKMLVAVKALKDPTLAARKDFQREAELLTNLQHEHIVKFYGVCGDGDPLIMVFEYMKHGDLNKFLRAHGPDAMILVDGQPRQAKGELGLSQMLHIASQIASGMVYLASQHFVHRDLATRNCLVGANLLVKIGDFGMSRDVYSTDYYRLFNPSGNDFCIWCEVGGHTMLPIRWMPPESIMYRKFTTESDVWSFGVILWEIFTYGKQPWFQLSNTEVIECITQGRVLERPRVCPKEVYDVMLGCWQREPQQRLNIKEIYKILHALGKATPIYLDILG
Compound	remaining activity
COc1cc2nccc(Oc3ccc(NC(=S)NC(=O)c4ccccc4C)cc3)c2cc1OC	86.1%
CN(C)c1ccc(C=C2C(=O)Nc3ccccc32)cc1	36.3%
O=C1NC(=O)C(c2cn(CCCO)c3ncccc23)=C1c1cnccn1	79.7%
OCC(O)CCON=C1C(c2c(O)[nH]c3ccccc23)=Nc2ccccc21 (stereo not shown)	1.01%

Block 2 — method: protein binding microarray; molecule type: double-stranded DNA, one strand shown; matrix: in vitro; concentration: not given; relative to: not given; reading: higher = stronger binding
Target: Histone acetyltransferase KAT6A, winged helix 1, GST fusion (KAT6A, Homo sapiens, UniProt Q92794, residues 1-85)
Setting: 8-mer, flanks averaged, mean of 2 arrays, mostly near background
Construct (chain): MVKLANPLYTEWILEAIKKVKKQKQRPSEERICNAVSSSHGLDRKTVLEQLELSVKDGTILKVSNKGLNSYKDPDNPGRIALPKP
Strand	E-score
ACGGTCGC	0.27
TATCTAGA	-0.177
CAACGGCC	0.28
ATACGGAA	0.165
GCCGTACC	0.418
ACGTACAA	-0.128
CCACTCCG	0.245
ACCTAAGG	-0.0318

Block 3 — method: RNA Bind-n-Seq; molecule type: RNA; matrix: in vitro; concentration: not given; setting: RNA with constant flanks, ends assumed; relative to: input RNA pool; reading: higher = stronger binding
Target: RING finger protein unkempt homolog, zinc fingers 1-6, GST-SBP tag (UNK, Homo sapiens, UniProt Q9C0B0, residues 30-357)
All sequences stand within: GGGAGUUCUACAGUCCGACGAUC … CAACAGAGGAUUGAGCAUCA
Construct (chain): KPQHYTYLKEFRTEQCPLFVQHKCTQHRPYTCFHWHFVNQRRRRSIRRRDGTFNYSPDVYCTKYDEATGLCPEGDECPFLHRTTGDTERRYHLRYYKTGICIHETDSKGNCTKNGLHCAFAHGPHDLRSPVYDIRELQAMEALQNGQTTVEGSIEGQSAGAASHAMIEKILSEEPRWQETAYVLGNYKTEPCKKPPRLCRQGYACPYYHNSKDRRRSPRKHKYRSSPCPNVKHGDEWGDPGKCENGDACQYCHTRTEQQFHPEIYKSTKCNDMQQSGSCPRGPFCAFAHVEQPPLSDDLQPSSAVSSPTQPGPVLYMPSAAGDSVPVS
Strand	bound/input enrichment [ratio]
AUCCUUCAGUGUUUUUUGUCCAUUAUCUGGGUCUUUUGGGCUUUAUCUAUUUUGGCUUCGAUCCGGAAACCCACGAAUCAGGUAGAAACCCCCGGAUGGCUGCCAUAGUUCCAGUUUUAA	0.526
GAGCCUUCUGAGGACAUUCCAAGACAGUAUACAGUCCUGUGGUCUCCUUGGAAAUCCGUCCCGUUAACAUUUCAAGGGCAAUACCGUGUUGGUUUUGACUGGAUAUUCAUAUAAACUUUU	0.273
GGUGAGAGUAUCAUGGUUGAACUCGCAGCUGGACCUUUUGGAAAUAAUGAAAAGUUGCCAGCCGUCAUCAGAGUACCAAAACUGAUCUAUUUCUCAGUAAUGAGUGUGUGCCUCAUGCCU	0.125
GUAUUAAGUUCUUCUCCUGCUGAUAAAUUGGAUUCUCGAUUUAGGAAGGGAAAUUUUGGCACCCGAGAUGCUGAAACAGAUGGACCUGAGAAAGGAGAUCAAAAAGGCAAGGCUUCUCCA	0.328
UUGUUGAAGAACCAGCUGUCUGAUCCUGAUAUAAAGGAUGACCAGAUCAUUAACUGGCUACCCGAAUUUCGUUCCUCUGUCAUGUACUUGACAAAAGACUUUGAGCAACUUAUAAACAUC	0.105
UGGAAAGAUGAAUUCAAGGCACACUCAAGGGUGAAGUGUCCAAACUCAGGGUGCUGGCCCGAGUUCCCCAGCAUCUAUGGGCUCAAGUACCACUAUCAGCGGUGCCAAGGGGUAAGGGGC	0.182
CCAAAUGGAUUGCUUCUGACUCCGAGUCCACUGCUCUCCAGCAUACAUUUCUGGAGCAGCCUCCGUCCAGUUGCUCCGCUGAGUCCUGCCAGGCUGCAAGGGCCAAGCACGCUGUUCCAG	0.051
CCUGCUCCCAAAUCAUGGGCCAGUAACAAGCAAGGUGGGCAAGGAGAUGGAAUCCAAGUGAACCGUCAAUUUCAGCAGGAAUUUCCCAGUCUGCAGGCAGCUGGAGAUCAGGAAAAAAAA	0.113

Block 4 — observed: cell-free assay; method: competition with immobilised ligand; concentration: 1 µM
Structure (SMILES): O=C1CCc2cc(Nc3cc(OC4CCOCC4)c([N+](=O)[O-])cc3Cl)ccc2N1
target	remaining binding
Phosphatidylinositol 4-phosphate 5-kinase type-1 alpha (PIP5K1A, Homo sapiens, UniProt Q99755)	100%
Phosphatidylinositol 4,5-bisphosphate 3-kinase catalytic subunit beta isoform (PIK3CB, Homo sapiens, UniProt P42338)	97%
Tyrosine-protein kinase Fes/Fps (FES, Homo sapiens, UniProt P07332)	100%
Death-associated protein kinase 2 (DAPK2, Homo sapiens, UniProt Q9UIK4)	79%
Serine/threonine-protein kinase 35 (STK35, Homo sapiens, UniProt Q8TDR2)	100%
Tyrosine-protein kinase ABL1, non-phosphorylated (ABL1, Homo sapiens, UniProt P00519, T315I)	99%
cAMP-dependent protein kinase catalytic subunit beta (PRKACB, Homo sapiens, UniProt P22694)	100%
Beta-adrenergic receptor kinase 1 (GRK2, Homo sapiens, UniProt P25098)	87%
Cyclin-dependent kinase 5 (CDK5, Homo sapiens, UniProt Q00535)	97%
Phosphatidylinositol 4,5-bisphosphate 3-kinase catalytic subunit alpha isoform (PIK3CA, Homo sapiens, UniProt P42336, E545K)	79%
Serine/threonine-protein kinase B-raf (BRAF, Homo sapiens, UniProt P15056)	100%
Ephrin type-B receptor 3 (EPHB3, Homo sapiens, UniProt P54753)	88%
Serine/threonine-protein kinase PRP4 homolog (PRPF4B, Homo sapiens, UniProt Q13523)	100%
Ephrin type-B receptor 6 (EPHB6, Homo sapiens, UniProt O15197)	100%
